Results collected from several papers.
“And” joins repeats or separate records; there may be more than shown. Numbers after ± are the reported error. Values after ≈ are worked out from the molar mass of the structure shown.

Structure (SMILES)	cell line	assay	test system	setting	scale	quantity	value
CC(c1ccccc1)(c1ccc(O)cc1)c1ccc(O)cc1	HepG2 spheroids	Hoechst flow cytometry	–	0.10 µM, 96 h	–	G1 phase cells	72.5 ± 0.82%
CC(C)[C@H](N)C(=O)N1CCC[C@H]1B(O)O	Ker-CT keratinocytes, ASC knockout	inducer, ELISA	–	concentration not given	–	IL-1β release	1.52 pg/mL and 0 pg/mL
O=S(=O)(c1ccc(O)cc1)c1ccc(O)cc1	HepG2 spheroids	Hoechst flow cytometry	–	10 µM, 96 h	–	G1 phase cells	72.3 ± 3.48%
CC(C)N1CCC(NC2CCN(c3cccc(-c4cc5cc(F)ccc5[nH]4)c3)CC2)CC1	MDA-MB-435	–	–	–	–	GI50	1.44 µM
C[C@H]1[C@H](C)CC[C@]2(C(=O)O)CC[C@]3(C)C(=CC[C@@H]4[C@@]5(C)CC[C@H](O)C(C)(C)[C@@H]5CC[C@]43C)[C@H]12	3T3	cell growth, MTT	–	7.25 µg/mL, 48 h	–	cell survival	77.44 ± 0.46%
Nc1ncc(-c2nc(N3CCOCC3)nc(N3CCOCC3)n2)c(C(F)F)n1	LNCaP clone FGC	cell growth	–	72 h	–	GI50	0.06 µM
Cc1ccc(-n2sc3ccccc3c2=O)cc1	HIV-infected PBMCs	measured: HLA-A2	–	1.0 µM, two donors	–	MHC-I surface recovery	16.2 ± 1.1%
COc1c(CCC[P+](c2ccccc2)(c2ccccc2)c2ccccc2)cc2c(c1OC)OCO2.[I-]	MDA-MB-435	SRB	–	–	–	GI50	-6.34 log M
Cc1ccc2c(c1)C=Cc1cc(C)ccc1C2c1cn(Cc2ccc(C(=O)Nc3nn[nH]n3)o2)c(=O)[nH]c1=S	N2a	fluorescence signal increase, inhibitor, live-cell imaging	–	1 µM, decay phase only, added: ATP 300 µM	–	inhibition	36%
Oc1cc(O)cc(-c2cc3ccc(O)cc3o2)c1	3T3	cell growth, MTT	–	1.8 µg/mL, 48 h	–	cell survival	83.62 ± 0.42%
Cc1ccc2cc(N3CCC4(O)C(=O)c5cc(C)c(C)cc5N=C34)ccc2n1 (stereo not drawn)	COS-7	cytokinesis	–	–	–	maximal inhibition	~100%
CC(C)C[C@H](NC(=O)[C@H](CCc1ccccc1)NC(=O)CN1CCOCC1)C(=O)N[C@@H](Cc1ccccc1)C(=O)N[C@@H](CC(C)C)C(=O)[C@@]1(C)CO1	patient normal conditionally reprogrammed cells	RNA-seq, measured: TUBB4A mRNA	human	concentration not given	relative to: DMSO	fold change	-99.6
O=C1CCP(=S)(c2ccccc2)CC1	HaCaT	Annexin V-FITC/PI flow cytometry	–	IC50, 72 h	–	late apoptotic cells	1.25%
CCN(CC)c1ccc(C=NNC(=O)CSc2nc3ccccc3c(=O)n2Cc2ccc(S(N)(=O)=O)cc2)c(O)c1	BT-549	NCI five-dose screen	–	–	–	CC50	> 100 µM
Cn1cncc1C1=CN(c2ncnc3[nH]cnc23)CCS1	T29	–	–	colon cancer	–	CC50	> 200 µM
Nc1ncnc2c1ncn2[C@@H]1O[C@@H]2COP(=O)(O)O[C@H]3[C@@H](O)[C@H](n4cnc5c(=O)[nH]cnc54)O[C@@H]3COP(=O)(O)O[C@H]2[C@H]1O	HFF-1	RNA sequencing, measured: Reactome MHC class I presentation	–	upregulated pathways	relative to: mock	fold enrichment	3.37
Cn1cc2cc(C(F)(F)c3nnc4ccc(-c5cnn(C6CC6)c5)nn34)c(F)cc2n1	MKN-45	PI flow cytometry	–	200 nM, 24 h	–	cells in G1 phase	90.5% and 90.9% and 90.2%
COc1c(C)c2c(c(O)c1C/C=C(\C)CCC(=O)O)C(=O)OC2	skin cancer cell lines	cell proliferation	–	average over lines	–	IC50	0.646 µM
C/C=C(/C)C(=O)O[C@H]1C(C)=C2[C@H]([C@@H]1OC(=O)CCCCCCC)[C@@](C)(OC(C)=O)C[C@H](OC(=O)CCC)[C@@]1(O)[C@H]2OC(=O)[C@@]1(C)O	HEK293T	RNA-seq, measured: SERPINH1 mRNA	–	10 µM, 6 h	relative to: vehicle	log2 fold change	0.185
COc1cnc(OC)n2nc(NS(=O)(=O)c3c(OCC(F)F)cccc3C(F)(F)F)nc12	HEK293T	cytotoxicity, CCK-8	–	50 µM, 72 h	–	inhibition	0.27 ± 0.16%

Structure (SMILES)	cell line	assay	test system	setting	scale	quantity	value
O=C1N(Cc2ccccc2Cl)c2ccccc2C12NN=C(c1ccccc1)S2 (stereo not drawn)	MDA-MB-468	gene expression array, measured: TSSC4 mRNA	–	10 µM, 12 h	relative to: untreated, up	fold change	1.63
Oc1ccc(C2(c3ccc(O)cc3)c3ccccc3-c3ccccc32)cc1	HepG2 spheroids	Hoechst flow cytometry	–	1 µM, 24 h	–	S phase cells	8.01 ± 1.77%
O=C(Nc1ccc2[nH]nc(-c3ccncc3)c2c1)[C@@H]1CCN(CC(=O)N2CCN(c3ccc(-c4ncccn4)cc3)CC2)C1	HCT116	IncuCyte	–	concentration not given, 0 (unit not given)	–	PI-positive cells	3.83 count and 1.42 count and 2.42 count
CN1CCN(C2(CNC3CCN(c4cccc(-c5cc6cc(F)ccc6[nH]5)c4)CC3)CCC2)CC1	786-0	–	–	–	–	CC50	6.89 µM
C/C=C(/C)C(=O)O[C@H]1C(C)=C2[C@H]([C@@H]1OC(=O)CCCCCCC)[C@@](C)(OC(C)=O)C[C@H](OC(=O)CCC)[C@@]1(O)[C@H]2OC(=O)[C@@]1(C)O	HEK293	protein secretion	–	concentration not given, unit not given	relative to: mock	secreted Gaussia luciferase	0.239
CC(C)=CCc1c(O)cc(O)cc1-c1cc2ccc(O)c(CC=C(C)C)c2o1	MCF7	cell growth, MTT	–	7.25 µg/mL, 48 h	–	cell survival	78.6 ± 1.2%
Cc1cccc(-c2cccc(C)n2)n1.Cc1cccc(-c2cccc(C)n2)n1.F[P-](F)(F)(F)(F)F.F[P-](F)(F)(F)(F)F.[Ru+2].c1ccc2cc(-c3nc4c5cccnc5c5ncccc5c4[nH]3)ccc2c1	SK-MEL-28	cell viability	–	1% O2, added: blue light 453 nm, 100 J/cm2	–	EC50	59.4 ± 1.4 µM
N.N.[Cl][Pt][Cl]	SK-MEL-28	cell growth, SRB	–	dark, 1% O2 hypoxia	–	TGI	2.49 µM
N.N.[Cl][Pt][Cl]	SAS	annexin V/PI staining	–	50 µM, 24 h, mean	–	apoptotic cells	42.5%
Oc1ccc(C(c2ccc(O)cc2)(C(F)(F)F)C(F)(F)F)cc1	HepG2 spheroids	Hoechst flow cytometry	–	10 µM, 96 h	–	G2 phase cells	20.1 ± 8.63%
CCCCCCCCCCCCCCCCCCN1C(=CC=CC2=[N+](CCCCCCCCCCCCCCCCCC)c3ccccc3C2(C)C)C(C)(C)c2ccccc21.[O-][Cl+3]([O-])([O-])[O-]	mouse erythrocytes	–	–	1 h, 37 °C, 25 µM lipids	–	labelling efficiency	< 5%
Cc1nn(-c2nc3c(F)cc(F)cc3s2)c(O)c1C(c1ccc(C(F)(F)F)cc1)c1c(C)nn(-c2nc3c(F)cc(F)cc3s2)c1O	RAW-ISG	CCK-8	–	1.563 µM	–	viability	109% and 113% and 99.5% and 97.3%
N.N.[Cl][Pt][Cl]	NAMALWA CSN/70	cell proliferation, CellTiter-Glo	–	10 µM, 72 h	–	inhibition	100%
Nc1ncnc2c1ncn2[C@@H]1O[C@H](COP(=O)(O)OP(=O)(O)OP(=O)(O)O)[C@@H](O)[C@H]1O	N2a	fluorescence signal increase, stimulant, live-cell confocal microscopy	–	300 µM	–	time to maximum ΔF/F0	~8 min
C[C@@H](O)[C@H]1C(=O)N2C(C(=O)O)=C(SCCN=CN)C[C@H]12	Escherichia coli DH5α expressing KPC-25	bacterial growth	–	–	–	MIC	0.125 µg/mL (≈ 0.418 µM)
COc1ccc2c(c1)[nH]c1c(C)nccc12	DU-145	bisulfite pyrosequencing, measured: RASSF1A promoter CpG site 25	–	concentration not given	relative to: vehicle	methylation reduction	0%
COc1cc(CCC[P+](c2ccccc2)(c2ccccc2)c2ccccc2)c(OC)c2c1OCO2.[I-]	BT-549	SRB	–	–	–	TGI	-5.07 log M
CN1CCN(S(=O)(=O)c2cc([N+](=O)[O-])ccc2N(CCOS(C)(=O)=O)CCOS(C)(=O)=O)CC1	sample B B-ALL PDX cells	cell viability	ex vivo	48 h, added: AKR1C3 inhibitor 1 µM, 1 h pretreatment	–	IC50	15.4 µM
COc1ccc([C@H]2c3[nH]c4ccc(Cl)cc4c3CCN2C(=O)Oc2ccc(Cl)cc2)cc1	CD19+ B cells with PBMC	cytokine secretion, measured: sIgG	–	0.1 µM, 144 h, BioMAP BT system	–	inhibition	98%

Excerpt of the above:
Structure (SMILES)	cell line	assay	test system	setting	scale	quantity	value
Cc1ccc2c(c1)C=Cc1cc(C)ccc1C2c1cn(Cc2ccc(C(=O)Nc3nn[nH]n3)o2)c(=O)[nH]c1=S	N2a	fluorescence signal increase, inhibitor, live-cell imaging	–	1 µM, decay phase only, added: ATP 300 µM	–	inhibition	36%
Oc1cc(O)cc(-c2cc3ccc(O)cc3o2)c1	3T3	cell growth, MTT	–	1.8 µg/mL, 48 h	–	cell survival	83.62 ± 0.42%
Cc1ccc2cc(N3CCC4(O)C(=O)c5cc(C)c(C)cc5N=C34)ccc2n1 (stereo not drawn)	COS-7	cytokinesis	–	–	–	maximal inhibition	~100%
CC(C)C[C@H](NC(=O)[C@H](CCc1ccccc1)NC(=O)CN1CCOCC1)C(=O)N[C@@H](Cc1ccccc1)C(=O)N[C@@H](CC(C)C)C(=O)[C@@]1(C)CO1	patient normal conditionally reprogrammed cells	RNA-seq, measured: TUBB4A mRNA	human	concentration not given	relative to: DMSO	fold change	-99.6
O=C1CCP(=S)(c2ccccc2)CC1	HaCaT	Annexin V-FITC/PI flow cytometry	–	IC50, 72 h	–	late apoptotic cells	1.25%
CCN(CC)c1ccc(C=NNC(=O)CSc2nc3ccccc3c(=O)n2Cc2ccc(S(N)(=O)=O)cc2)c(O)c1	BT-549	NCI five-dose screen	–	–	–	CC50	> 100 µM
Cn1cncc1C1=CN(c2ncnc3[nH]cnc23)CCS1	T29	–	–	colon cancer	–	CC50	> 200 µM
